Measured values pooled from the literature.
Each line is one published result; not all experiments were run side by side. ± gives the spread as reported.

Compound | assay | test system | setting | scale | remaining compound [%]
CCCC(CCC)NC(=O)c1ccc(O)c(OC)c1 |  | rat liver microsomes | 1.0 µM, 20 min |  | 80.8
C=C(NC(=O)OCc1ccccc1)C(=O)N1CCC[C@H]1C(=O)NC(C)(C)C(=O)N[C@@H](C)C(=O)OC | 1H NMR | DMSO-d6 | 40 min, room temperature, with: cysteamine 2 equiv |  | 93
C[C@H](CCC(=O)NCCc1ccc(-c2ccccc2)cc1)[C@H]1CC[C@H]2[C@@H]3CC[C@@H]4CC(=O)CC[C@]4(C)[C@H]3CC[C@]12C |  | human plasma | 2 h |  | 96.9
CN(C)C(CNC(=O)Nc1cc(C(F)(F)F)ccc1N1CCOCC1)c1ccncc1 (stereo not shown) |  | human plasma | 6 h |  | 88.6
CC(C)(CN)S[Se]Cc1ccc(-c2cccc(C(O)c3ccc(Cl)c(Cl)c3)c2)cc1 (stereo not shown) |  | rat plasma | 1 h |  | 73
Oc1ccccc1-n1nc(-c2ccccc2)n[n+]1-c1ccccc1.[Br-] | HPLC | fetal bovine serum | 24 h |  | 100
CC1=C(C2=C(C)C(=O)c3c(cc(O)c(O)c3Cc3ccccc3)C2=O)C(=O)c2cc(O)c(O)c(Cc3ccccc3)c2C1=O (racemic) |  | rat plasma | 100 µM, 1 h, 37.5 °C |  | 99 ± 0.5
COc1cc(NC(C)=O)c2c(c1O)-c1c(OC)c(OC)cc3c1C(C2)N(C)CC3 (stereo not shown) |  | rat brain homogenate | 5 µg/mL, 24 h, room temperature, post-preparative storage |  | 92.1 ± 3.1
CSCC(NC(=O)c1cc(Cl)ccc1Cl)C(=O)NC(CC(C)C)B(O)O (stereo not shown) |  | mouse liver microsomes | 3 µM, 60 min, pH 7.4, with: NADPH |  | 61 ± 0.29
Fc1ccc(Nc2c(Cl)cccc2Cl)c(Cc2nnn[nH]2)c1 | glucuronidation | human liver microsomes | 30 min, with: UDPGA |  | 91 ± 12
[Ru+2].c1ccc(-c2cccc(-c3ccccn3)n2)nc1.c1ccc2nc(-c3ccc4ccccc4n3)ccc2c1.c1ccncc1 |  | water | 24 h, 37 °C |  | 82
COc1ccc2c(c1)c(CC(=O)Nc1nnc(CCCCc3ccc(NC(=O)Cc4cccc(OC(F)(F)F)c4)nn3)[se]1)cn2C |  | mouse liver microsomes | 50 µM, 4 h, pH 7.4, 37 °C |  | 34.4 ± 9.5
O=C(Cc1ccc(-c2ccc(OCCN3CCOCC3)cc2)cn1)NCc1ccc(F)cc1 |  | human liver microsomes | 30 min, with: NADPH |  | 21.8 ± 1.4
Clc1cccc(Cl)c1Nc1ccccc1Cc1nnn[nH]1 |  | human liver microsomes | 30 min, with: NADPH |  | 61 ± 2.8
CO[C@@H](C(N)=O)[C@H](NC(=O)c1ccc(NC(=O)c2ccc([N+](=O)[O-])cc2)cc1)C(=O)Nc1ccc(C(=O)Nc2ccc(C(=O)Nc3ccc(C(=O)O)cc3)c(O)c2OC(C)C)cc1 |  | human plasma | 4 h |  | 78
N[C@H](COc1ccccc1C(F)(F)F)c1ccccc1 |  | human liver microsomes | 1 h, with: NADPH |  | > 95
O=c1c2ccccc2[se]n1CCCCCCn1[se]c2ccccc2c1=O |  | mouse liver microsomes | 5 µM, 4 h, pH 7.4, 37 °C |  | < 5
[Br-].c1ccc(-c2nn(-c3ccccn3)[n+](-c3ccccc3)n2)cc1 | HPLC | fetal bovine serum | 24 h |  | 100
C[C@@H](O)[C@H](NC(=O)[C@@H](NC(=O)[C@@H](N)CCCCN)[C@@H](C)O)C(=O)N[C@@H](CCCCN)C(=O)N[C@@H](CO)C(=O)O | LC-MS/MS | mouse dermal skin extract | 40 µg/mL, 30 min, pH 7.4, 37 °C |  | 3.2

Compound | assay | test system | setting | scale | remaining compound [%]
CCCCCCCCCCCCCCCC(=O)N[C@@H](CCC(=O)NCCCC[C@H](NC(=O)[C@H](C)NC(=O)[C@H](C)NC(=O)[C@H](CCC(N)=O)NC(=O)CNC(=O)[C@H](CCC(=O)O)NC(=O)[C@H](CC(C)C)NC(=O)[C@H](Cc1ccc(O)cc1)NC(=O)[C@H](CO)NC(=O)[C@H](CO)NC(=O)[C@@H](NC(=O)[C@H](CC(=O)O)NC(=O)[C@H](CO)NC(=O)[C@@H](NC(=O)[C@H](Cc1ccccc1)NC(=O)[C@@H](NC(=O)CNC(=O)[C@H](CCC(=O)O)NC(=O)[C@H](C)NC(=O)[C@@H](N)Cc1cnc[nH]1)[C@@H](C)O)[C@@H](C)O)C(C)C)C(=O)N[C@@H](CCC(=O)O)C(=O)N[C@@H](Cc1ccccc1)C(=O)N[C@H](C(=O)N[C@@H](C)C(=O)N[C@@H](Cc1c[nH]c2ccccc12)C(=O)N[C@@H](CC(C)C)C(=O)N[C@H](C(=O)N[C@@H](CCCNC(=N)N)C(=O)NCC(=O)N[C@@H](CCCNC(=N)N)C(=O)NCC(=O)O)C(C)C)[C@@H](C)CC)C(=O)O | HPLC | simulated intestinal fluid with pancreatin | 2 h |  | 4.56
CCc1c2c(nc3ccc(O)cc13)-c1cc3c(c(=O)n1C2)COC(=O)[C@@]3(CC)OC(=O)[C@H](N)C(C)C |  | rat plasma | 5 µM, 120 min, 37 °C |  | 40
Brc1ccccc1-c1nnc(CSc2nnnn2-c2ccccc2)o1 |  | rat plasma | 1 h |  | 98.6
CC[N+]1=C(C=CC=CC=C2N(CCCCCC(=O)O)c3ccc4c(S(=O)(=O)[O-])cc(S(=O)(=O)[O-])cc4c3C2(C)C)C(C)(C)c2c1ccc1c(S(=O)(=O)[O-])cc(S(=O)(=O)[O-])cc21.[K+].[K+].[K+] |  | 100% serum | 24 h, pH 7.4, 37 °C |  | 99
C=C1C[C@@]23CC[C@H]4[C@@](C)(CCC[C@@]4(C)C(=O)O[C@@H]4O[C@H](CO)[C@@H](O)[C@H](O)[C@H]4O)[C@@H]2CC[C@]1(O[C@@H]1O[C@H](CO[C@H]2O[C@H](CO)[C@@H](O)[C@H](O)[C@H]2O)[C@@H](O)[C@H](O)[C@H]1O[C@@H]1O[C@H](CO)[C@@H](O)[C@H](O)[C@H]1O)C3 | HPLC | Britton-Robinson buffer | 0.05 % w/v, time not given, pH 1.4 | baseline: initial | 63.2 ± 1.09
C[C@@]1(C(=O)O)CC/C=C/[C@H](OC(=O)Nc2ccn([C@@H]3O[C@H](CO)[C@@H](O)C3(F)F)c(=O)n2)CC1 |  | mouse plasma | 1 µM, time not given, 37 °C |  | > 99
O=C(O)Cc1cc(F)ccc1Nc1c(Cl)cccc1Cl | glucuronidation | human liver microsomes | 30 min, with: UDPGA |  | 58 ± 3.3
C[N+]1(CC(=O)OC2CCCCCCCCCCC2)CCCCC1 |  | human liver microsomes | 60 min, without NADPH |  | 88
CCCCCCCCCCCCCCCC(=O)OC[C@H]1O[C@@H](n2cc(F)c(N)nc2=O)CS1 |  | monkey plasma | 1 µM, 90 min, 37 °C | baseline: 0 min | 33
CC12CC3CC(C1)CC(NC(=O)NC1CCC(Oc4ccc(C(=O)O)cc4)CC1)(C3)C2 (stereo not shown) |  | human liver microsomes | 1 µM, 30 min, 37 °C, 1 mg/mL microsomes, with: without NADPH |  | 95 ± 3
Cc1cc(N)nc(C[C@@H]2CNC[C@@H]2OCCCCCc2cccc(N)n2)c1 | in vitro metabolic stability |  | 60 min, with: NADPH |  | 85
CC12CC3(C)CC(C)(C1)CC(NC(=O)NC1CCC(Oc4ccc(C(=O)O)cc4)CC1)(C2)C3 (stereo not shown) |  | human liver microsomes | 1 µM, 30 min, 37 °C, 1 mg/mL microsomes, with: without NADPH |  | 95 ± 4
O=C(O)C(F)(F)c1ccccc1Nc1c(Cl)cccc1Cl | glucuronidation | human liver microsomes | 30 min, with: UDPGA |  | 108 ± 2.8
O=c1[nH]c(N2CCC3(CC2)CN(CCO)c2cc(F)cc(F)c23)nc2c1CCCC2 |  | mouse liver microsomes | concentration not given, time not given |  | 18
COc1cc(CNC(=O)CCCC/C=C/C(C)C)ccc1N |  | C57BL/6 mouse plasma | 2 µM, 120 min |  | 97
COC(=O)c1ccc2c(c1)NC(=O)/C2=C(\Nc1ccc2c(c1)CCN2C(=O)CN1CCOCC1)c1ccccc1 |  | beagle dog plasma | 1 µM, 4 h, 37 °C |  | 105
[Ru+2].c1ccc(-c2cccc(-c3ccccn3)n2)nc1.c1ccc2nc(-c3nc4ccccc4s3)ccc2c1.c1cnccn1 |  | water | 24 h, 37 °C |  | 84
CCCC[P+](CCCC)(CCCC)CCCC.Cc1ccc(S(=O)(=O)[N-]C(=O)NN2CC3CCCC3C2)cc1 (stereo not shown) | solution stability | PBS buffer | 24 h, pH 7.4, 37 °C |  | 62.7

For quick reference, copied from above:
Compound | assay | test system | setting | scale | remaining compound [%]
CSCC(NC(=O)c1cc(Cl)ccc1Cl)C(=O)NC(CC(C)C)B(O)O (stereo not shown) |  | mouse liver microsomes | 3 µM, 60 min, pH 7.4, with: NADPH |  | 61 ± 0.29
CC12CC3(C)CC(C)(C1)CC(NC(=O)NC1CCC(Oc4ccc(C(=O)O)cc4)CC1)(C2)C3 (stereo not shown) |  | human liver microsomes | 1 µM, 30 min, 37 °C, 1 mg/mL microsomes, with: without NADPH |  | 95 ± 4
O=c1c2ccccc2[se]n1CCCCCCn1[se]c2ccccc2c1=O |  | mouse liver microsomes | 5 µM, 4 h, pH 7.4, 37 °C |  | < 5
